# Assay results gathered from unrelated publications.
# Numbers after ± are the reported error.
SMILES,assay,test system,conditions,Cmax
O=C1CCc2ccc(OCCCCN3CCN(c4cccc(Cl)c4Cl)CC3)cc2N1,,"healthy Japanese men, CYP2D6 EM, plasma","oral, 3 mg aripiprazole single, together with: paroxetine 20 mg/day",17.7 ± 4.6 ng/mL
CC(C)c1nc(CN(C)C(=O)N[C@H](C(=O)N[C@@H](Cc2ccccc2)C[C@H](O)[C@H](Cc2ccccc2)NC(=O)OCc2cncs2)C(C)C)cs1,,"healthy male, plasma","600 mg single dose, geometric mean, together with: amenamevir 400 mg",13200 ng/mL
C[C@@H](Oc1ccc(S(C)(=O)=O)cc1C(=O)N1C[C@@H]2C[C@]2(c2cc(C(F)(F)F)on2)C1)C(F)(F)F,,"healthy male volunteers, plasma","oral, 25 mg, geometric mean, together with: itraconazole",366 nM
CCCC[C@H](NC(C)=O)C(=O)N[C@H]1CCC(=O)NC[C@@H](C(=O)N[C@@H](Cc2c[nH]c3ccccc23)C(N)=O)NC(=O)[C@H](CCCNC(=N)N)NC(=O)[C@@H](Cc2ccccc2)NC(=O)[C@H](Cc2c[nH]cn2)NC1=O,,"healthy volunteers, plasma","subcutaneous, 3.0 mg once daily, day 7, steady state mean",58.5 ng/mL
C=C(C)[C@@H]1CC[C@]2(NCCN3CCS(=O)(=O)CC3)CC[C@]3(C)[C@H](CC[C@@H]4[C@@]5(C)CC=C(C6=CC[C@@](CF)(C(=O)O)CC6)C(C)(C)[C@@H]5CC[C@]43C)[C@@H]12,,"healthy adults, plasma","oral, 200 mg once daily, day 7, steady state, moderate-fat meal, together with: dolutegravir 50 mg",1660 ng/mL
CC(=O)c1nn(CC(=O)N2C[C@H](F)C[C@H]2C(=O)Nc2cccc(Br)n2)c2ccc(-c3cnc(C)nc3)cc12,,"Dutch Belted rabbit, plasma","oral, 15 mg/kg single dose",318 ng/mL
NCCCC[C@H](N[C@@H](CCc1ccccc1)C(=O)O)C(=O)N1CCC[C@H]1C(=O)O,,"healthy volunteers, plasma","oral, 10 mg, geometric mean, together with: 200 mL water",42.2 ng/mL
CC(C)=CCC[C@](C)(O[C@@H]1O[C@H](CO)[C@@H](O)[C@H](O)[C@H]1O)[C@H]1CC[C@]2(C)[C@@H]1[C@H](O)C[C@@H]1[C@@]3(C)CC[C@H](O[C@@H]4O[C@H](CO)[C@@H](O)[C@H](O)[C@H]4O[C@@H]4O[C@H](CO)[C@@H](O)[C@H](O)[C@H]4O)C(C)(C)[C@@H]3CC[C@]12C,LC-MS/MS,"healthy male volunteers, serum","oral, 3 g fermented red ginseng",17.5 ± 6.58 ng/mL
O=C(O)C[C@H](O)C[C@H](O)/C=C/c1c(C2CC2)nc2ccccc2c1-c1ccc(F)cc1,,"healthy Chinese male volunteers, plasma","oral, 2 mg once daily, multiple dose",86.2 ng/mL
COc1ccc2c3c1O[C@H]1C[C@@H](OC(=O)c4ccccc4)C=C[C@@]31CCN(C)C2,,"healthy elderly men, plasma","intranasal, 22 mg, single dose",26.5 ng/mL
CCOc1ccc2cc(-c3nn(CC4CCN(C)CC4)c4ncnc(N)c34)ccc2c1,,"sheep (pregnant, Neospora caninum-infected), plasma","oral, 100 mg/kg, after first dose",2100 ± 700 nM
CC(C)(Sc1ccncc1-c1ccc(C#N)c2ccccc12)C(=O)O,,"non-Asian male subjects, plasma","oral, 10 mg, multiple doses, fed, geometric least squares mean",18 ng/mL
CCOc1ccc(Cc2cc([C@@H]3S[C@H](CO)[C@@H](O)[C@H](O)[C@H]3O)c(OC)cc2C)cc1,,"Japanese type 2 diabetes patients, plasma","oral, 5 mg single dose, eGFR 30-44 mL/min/1.73 m^2",211 ± 62.5 ng/mL
CN(C)C(=O)c1cc2cnc(Nc3ccc(N4CCNCC4)cn3)nc2n1C1CCCC1,,"Japanese cancer patients, plasma","oral, 600 mg, steady state, no proton pump inhibitor, geometric mean",3500 ng/mL
CON(C)C(=O)N1N=C(c2cc(F)ccc2F)S[C@@]1(CCCN)c1ccccc1,,"patients, plasma","intravenous, dose not given, single doses, range of cohorts",31.1 to 132 ng/mL
Nc1ncc(-c2cnn(CCO)c2)c2scc(-c3ccc(NC(=O)Nc4cccc(F)c4)cc3)c12,,"patient, plasma","oral, 480 mg twice weekly, day 1, trial",1060 ± 680 ng/mL
C=C(C)[C@@H]1CC[C@]2(NCCN3CCS(=O)(=O)CC3)CC[C@]3(C)[C@H](CC[C@@H]4[C@@]5(C)CC=C(C6=CC[C@@](CF)(C(=O)O)CC6)C(C)(C)[C@@H]5CC[C@]43C)[C@@H]12,,"HIV-1-positive treatment-naive adults, plasma","oral, 140 mg single dose, day 1, with food",920 ng/mL
Cc1cc(Nc2cc3ncccc3c(N[C@@H]3C[C@H]4CC[C@@H](C3)N4CCC#N)n2)n[nH]1,,"pregnant rabbit, maternal plasma","oral, 10 mg/kg/day, gestation day 7",7.67 ng/mL
Cc1ccc(NC(=O)c2ccc(CN3CCN(C)CC3)cc2)cc1Nc1nccc(-c2cncc(-c3oncc3C)c2)n1,,"healthy volunteers, plasma","oral, 12.5 mg once daily, day 1, 7-day dosing, mean",538 ng/mL
COc1cc(OC)c(/C=C/S(=O)(=O)Cc2ccc(OC)c(NCC(=O)O)c2)c(OC)c1,,"cancer patients, phase I, plasma","oral, 560 mg twice daily, day 21 cycle 1",2540 ± 2350 ng/mL
C[C@]12C=CC(=O)C=C1CC[C@@H]1[C@@H]2[C@@H](O)C[C@@]2(C)[C@H]1C[C@H]1O[C@@H](C3CCCCC3)O[C@]12C(=O)CO,,"children with asthma, serum","inhaled, 160 µg ciclesonide, day 7, geometric LS mean, per-protocol, spacer",0.19 ng/mL
CN1CCN(c2ccc3nc(-c4c(N)c5c(F)cccc5[nH]c4=O)[nH]c3c2)CC1,,"patients, plasma","oral, 300 mg daily 5 days on 2 off, day 19, median, together with: gemcitabine and capecitabine",221 ng/mL
O=C(CCCCCCC(=O)Nc1ccccc1)NO,,"patients, serum","oral, 800 mg, cycle 1 day 2, together with: flavopiridol 30+30 mg/m2",6430 nM
Cc1ccc(Sc2ccccc2N2CCNCC2)c(C)c1,,"healthy women, plasma","oral, 5 mg once daily, fed, day 12",13.5 ng/mL
CC(C)=CCC[C@](C)(O[C@@H]1O[C@H](CO)[C@@H](O)[C@H](O)[C@H]1O)[C@H]1CC[C@]2(C)[C@@H]1[C@H](O)C[C@@H]1[C@@]3(C)CC[C@H](O[C@@H]4O[C@H](CO)[C@@H](O)[C@H](O)[C@H]4O)C(C)(C)[C@@H]3CC[C@]12C,LC-MS/MS,"healthy male volunteers, serum","oral, 3 g fermented red ginseng",3.09 ± 5.03 ng/mL
Cc1nc(-c2ccc(OCC(C)C)c(C#N)c2)sc1C(=O)O,,"healthy men, plasma","oral, 80 mg once daily, day 14, geometric mean, together with: verinurad 2.5 mg",1720 ng/mL
Nc1cc(F)ccc1NC(=O)c1ccc(CNC(=O)/C=C/c2cccnc2)cc1,,"Japanese patients, plasma","oral, 40 mg twice weekly, cycle 1 day 25, arithmetic mean",385 ng/mL
CS(=O)(=O)n1cc2c(n1)CN([C@H]1CO[C@H](c3cc(F)ccc3F)[C@@H](N)C1)C2,,"healthy Japanese men, plasma","oral, 25 mg once weekly, day 1",803 nM
O=C(Nc1nc2cccc(-c3ccc(CN4CCS(=O)(=O)CC4)cc3)n2n1)C1CC1,,"healthy subjects, plasma","oral, 100 mg single dose, 1 h after itraconazole, fasting, mean, together with: itraconazole 200 mg",1170 ng/mL
CC(C)NCCCn1c(Sc2cc3c(cc2I)OCO3)nc2c(N)ncnc21,,"patients, plasma","intravenous, ≥266 mg/m2",> 3400 nM
N[C@@H](CC(=O)N1CCn2c(nnc2C(F)(F)F)C1)Cc1cc(F)c(F)cc1F,,"healthy Korean subjects, plasma","oral, 100 mg single dose, ABCB1 G2677T/A AA",585 ng/mL
C[C@H]1Oc2cc(cnc2N)-c2c(nn(C)c2C#N)CN(C)C(=O)c2ccc(F)cc21,,healthy adults,"oral tablet, 100 mg single dose, adjusted geometric mean, together with: rabeprazole 20 mg",377 ng/mL
COc1cccc(N2CCN(C3=Nc4c(F)cccc4[C@H](CC(=O)O)N3c3cc(C(F)(F)F)ccc3OC)CC2)c1,UHPLC-MS/MS,"healthy women, plasma","intravenous infusion, 120 mg single dose, 30 min infusion, HPβCD formulation",7440 ± 1350 ng/mL
CO/N=C1\C[C@]2(C[C@@H]3C[C@@H](C/C=C(\C)C[C@@H](C)/C=C/C=C4\CO[C@@H]5[C@H](O)C(C)=C[C@@H](C(=O)O3)[C@]45O)O2)O[C@H](/C(C)=C/C(C)C)[C@H]1C,,"parasitized Corriedale lambs, plasma","subcutaneous, 0.2 mg/kg",26.2 ± 6.82 ng/mL
CN1CC[C@H](c2c(O)cc(O)c3c(=O)cc(-c4ccccc4Cl)oc23)[C@H](O)C1,,"patients with advanced solid tumours, plasma","intravenous infusion, 40 mg/m^2, lower dose level, together with: FOLFOX",1230 nM
CN1C(=O)[C@@H](NC(=O)c2nnc(Cc3ccccc3)[nH]2)COc2ccccc21,,"healthy men, plasma","oral, 20 mg once daily, day 1, geometric mean",281 ng/mL
C[C@@H](N)c1cc(Cl)ccc1Cn1c(=S)[nH]c(=O)c2[nH]ccc21,,"healthy Japanese volunteers, plasma","oral, 5 mg once daily, day 1, geometric mean",17 nM
COc1c(N2C[C@@H]3CCCN[C@@H]3C2)c(F)cc2c(=O)c(C(=O)O)cn(C3CC3)c12,HPLC-MS/MS,"healthy adults, plasma","oral, 400 mg",2270 ng/mL
CCOc1cc([C@@H](CS(C)(=O)=O)N2C(=O)c3cccc(NC(C)=O)c3C2=O)ccc1O[C@@H]1O[C@H](C(=O)O)[C@@H](O)[C@H](O)[C@H]1O,,"severe renal impairment patients, plasma","oral, 30 mg of apremilast",276 ng/mL
CN[C@H](CC(C)C)C(=O)N[C@H]1C(=O)N[C@@H](CC(N)=O)C(=O)N[C@H]2C(=O)N[C@H]3C(=O)N[C@H](C(=O)N[C@H](C(=O)O)c4cc(O)cc(O)c4-c4cc3ccc4O)[C@H](O)c3ccc(c(Cl)c3)Oc3cc2cc(c3O[C@@H]2O[C@H](CO)[C@@H](O)[C@H](O)[C@H]2O[C@H]2C[C@](C)(N)[C@H](O)[C@H](C)O2)Oc2ccc(cc2Cl)[C@H]1O,microdialysis,"pig (Danish Landrace), cancellous bone","iv infusion, 1000 mg over 100 min, together with: meropenem co-administered",14000 ng/mL
CCC[C@H](N[C@@H](C)C(=O)N1[C@H](C(=O)O)C[C@@H]2CCCC[C@@H]21)C(=O)O,,"healthy Chinese volunteers, plasma","oral, 4 mg perindopril tert-butylamine, fasting, together with: indapamide 1.25 mg",5.96 ± 3 ng/mL
Cc1ccnc2c1NC(=O)c1cccnc1N2C1CC1,,"olive baboon (Papio anubis), female, non-pregnant, serum","oral, 400 mg, tablet, single dose",328 ng/mL
CC(=O)Nc1ccc(O)cc1,,"healthy volunteers, both sexes, plasma","oral, 650 mg, day 6, together with: favipiravir 800 mg, extended",9900 ng/mL
CC[C@H](C)CCCCC(=O)N[C@@H](CCN)C(=O)N[C@H](C(=O)N[C@@H](CCN)C(=O)N[C@H]1CCNC(=O)[C@H]([C@@H](C)O)NC(=O)[C@H](CCN)NC(=O)[C@H](CCN)NC(=O)[C@H](CC(C)C)NC(=O)[C@@H](Cc2ccccc2)NC(=O)[C@H](CCN)NC1=O)[C@@H](C)O,UPLC-MS/MS,"intensive care patients AKI, plasma","iv, dose not given, end of infusion, steady state, polymyxin B dosing",6900 ± 1900 ng/mL
NC(=O)c1cnc2[nH]ccc2c1N[C@@H]1[C@@H]2CC3C[C@H]1C[C@@](O)(C3)C2,,"healthy Japanese men, plasma","oral, 20 mg, single dose fasted",76.9 ng/mL
